Published values pooled from the literature.
Each numbered part is a random draw from the data of one study; scales do not carry over between parts. ± marks the error that the study gave.
UniProt P53355, sequence (whole entry, looked up): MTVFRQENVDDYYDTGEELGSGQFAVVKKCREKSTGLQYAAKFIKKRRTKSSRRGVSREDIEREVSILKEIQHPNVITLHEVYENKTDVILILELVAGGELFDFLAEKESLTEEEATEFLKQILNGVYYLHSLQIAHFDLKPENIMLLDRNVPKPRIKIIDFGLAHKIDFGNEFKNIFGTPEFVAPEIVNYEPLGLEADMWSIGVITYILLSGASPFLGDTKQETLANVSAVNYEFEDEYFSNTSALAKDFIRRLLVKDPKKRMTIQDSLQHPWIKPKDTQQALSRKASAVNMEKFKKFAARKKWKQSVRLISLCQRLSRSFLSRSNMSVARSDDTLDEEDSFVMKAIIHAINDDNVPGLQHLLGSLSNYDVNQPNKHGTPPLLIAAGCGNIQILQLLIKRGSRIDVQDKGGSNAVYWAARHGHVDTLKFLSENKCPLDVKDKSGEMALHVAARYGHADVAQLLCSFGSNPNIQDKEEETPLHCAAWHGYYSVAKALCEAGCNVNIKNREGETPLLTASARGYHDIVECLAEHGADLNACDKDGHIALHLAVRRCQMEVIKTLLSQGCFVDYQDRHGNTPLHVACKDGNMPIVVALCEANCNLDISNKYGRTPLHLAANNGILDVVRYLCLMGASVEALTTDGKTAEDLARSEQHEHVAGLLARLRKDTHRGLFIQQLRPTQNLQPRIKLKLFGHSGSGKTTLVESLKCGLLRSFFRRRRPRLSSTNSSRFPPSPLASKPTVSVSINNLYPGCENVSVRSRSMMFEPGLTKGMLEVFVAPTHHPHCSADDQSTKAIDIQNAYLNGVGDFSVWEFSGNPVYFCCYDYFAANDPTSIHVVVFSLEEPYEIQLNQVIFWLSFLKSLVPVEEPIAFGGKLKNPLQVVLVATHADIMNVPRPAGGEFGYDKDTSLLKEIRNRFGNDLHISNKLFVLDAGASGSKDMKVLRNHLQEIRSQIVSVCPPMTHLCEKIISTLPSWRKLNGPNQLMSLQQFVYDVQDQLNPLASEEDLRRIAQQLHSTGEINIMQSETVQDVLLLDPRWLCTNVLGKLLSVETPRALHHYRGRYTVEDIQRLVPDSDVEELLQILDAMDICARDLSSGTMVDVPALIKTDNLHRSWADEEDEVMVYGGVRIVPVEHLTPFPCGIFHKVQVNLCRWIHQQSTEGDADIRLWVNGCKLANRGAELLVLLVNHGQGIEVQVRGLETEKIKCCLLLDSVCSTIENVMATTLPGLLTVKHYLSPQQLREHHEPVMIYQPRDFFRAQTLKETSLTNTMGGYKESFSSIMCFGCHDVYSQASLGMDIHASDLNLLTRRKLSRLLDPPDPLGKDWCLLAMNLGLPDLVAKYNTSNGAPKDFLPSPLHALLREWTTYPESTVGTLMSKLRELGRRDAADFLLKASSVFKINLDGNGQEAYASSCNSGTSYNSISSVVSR
UniProt P06213, sequence (whole entry, looked up): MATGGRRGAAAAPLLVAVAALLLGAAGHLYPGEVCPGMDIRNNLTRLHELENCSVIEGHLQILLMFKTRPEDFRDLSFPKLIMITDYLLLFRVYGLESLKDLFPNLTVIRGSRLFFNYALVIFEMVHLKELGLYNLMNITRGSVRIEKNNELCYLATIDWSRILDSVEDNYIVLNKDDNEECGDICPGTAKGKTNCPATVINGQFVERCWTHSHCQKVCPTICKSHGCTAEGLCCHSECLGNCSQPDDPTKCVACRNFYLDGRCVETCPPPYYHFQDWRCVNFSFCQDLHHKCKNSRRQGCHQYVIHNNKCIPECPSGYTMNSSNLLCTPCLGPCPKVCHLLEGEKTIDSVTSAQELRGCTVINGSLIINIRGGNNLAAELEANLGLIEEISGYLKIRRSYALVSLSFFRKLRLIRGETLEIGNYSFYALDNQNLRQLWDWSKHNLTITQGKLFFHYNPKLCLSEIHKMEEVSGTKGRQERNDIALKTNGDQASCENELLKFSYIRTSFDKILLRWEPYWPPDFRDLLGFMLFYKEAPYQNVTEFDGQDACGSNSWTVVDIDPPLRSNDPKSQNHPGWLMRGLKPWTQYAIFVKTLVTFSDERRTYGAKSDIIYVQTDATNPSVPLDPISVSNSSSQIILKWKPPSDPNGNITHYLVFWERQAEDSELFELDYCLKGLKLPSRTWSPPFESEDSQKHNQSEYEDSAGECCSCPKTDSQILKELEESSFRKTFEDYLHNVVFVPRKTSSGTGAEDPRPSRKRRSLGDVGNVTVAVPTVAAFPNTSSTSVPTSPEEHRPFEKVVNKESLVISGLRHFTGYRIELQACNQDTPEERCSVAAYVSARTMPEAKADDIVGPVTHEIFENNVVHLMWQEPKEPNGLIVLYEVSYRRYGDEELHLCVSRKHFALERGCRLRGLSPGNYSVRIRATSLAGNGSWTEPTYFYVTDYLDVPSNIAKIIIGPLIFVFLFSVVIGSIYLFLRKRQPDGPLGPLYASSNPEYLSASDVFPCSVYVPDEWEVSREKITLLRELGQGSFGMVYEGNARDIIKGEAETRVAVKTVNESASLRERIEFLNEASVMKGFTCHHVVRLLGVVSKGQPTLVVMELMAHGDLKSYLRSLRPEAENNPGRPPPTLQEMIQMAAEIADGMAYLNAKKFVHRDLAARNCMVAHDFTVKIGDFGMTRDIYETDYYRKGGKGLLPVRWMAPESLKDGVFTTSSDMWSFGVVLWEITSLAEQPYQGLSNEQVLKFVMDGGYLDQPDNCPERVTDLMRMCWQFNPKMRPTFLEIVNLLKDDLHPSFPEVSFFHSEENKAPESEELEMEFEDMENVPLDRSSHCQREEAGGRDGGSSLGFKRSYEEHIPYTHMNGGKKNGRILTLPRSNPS
UniProt P27448, sequence (whole entry, looked up): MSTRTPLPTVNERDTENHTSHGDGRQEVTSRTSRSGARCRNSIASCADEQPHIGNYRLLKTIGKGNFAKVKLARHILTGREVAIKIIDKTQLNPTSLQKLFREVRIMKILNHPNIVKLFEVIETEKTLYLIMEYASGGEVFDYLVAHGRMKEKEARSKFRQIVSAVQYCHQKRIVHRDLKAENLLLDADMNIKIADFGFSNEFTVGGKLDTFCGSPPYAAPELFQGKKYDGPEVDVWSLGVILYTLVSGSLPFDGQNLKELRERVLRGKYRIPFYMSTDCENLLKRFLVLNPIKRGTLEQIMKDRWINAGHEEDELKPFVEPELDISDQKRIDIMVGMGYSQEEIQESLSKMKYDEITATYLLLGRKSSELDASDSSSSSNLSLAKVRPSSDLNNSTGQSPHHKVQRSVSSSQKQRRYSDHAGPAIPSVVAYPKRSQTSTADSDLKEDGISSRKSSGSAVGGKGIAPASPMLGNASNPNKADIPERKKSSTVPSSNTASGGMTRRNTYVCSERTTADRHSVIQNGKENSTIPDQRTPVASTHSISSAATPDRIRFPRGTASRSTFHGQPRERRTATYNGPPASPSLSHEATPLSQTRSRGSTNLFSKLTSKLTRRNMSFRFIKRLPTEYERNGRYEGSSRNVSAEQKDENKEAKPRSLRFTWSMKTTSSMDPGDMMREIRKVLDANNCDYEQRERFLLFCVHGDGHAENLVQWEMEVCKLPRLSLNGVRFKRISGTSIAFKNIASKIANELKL
UniProt P51813, sequence (whole entry, looked up): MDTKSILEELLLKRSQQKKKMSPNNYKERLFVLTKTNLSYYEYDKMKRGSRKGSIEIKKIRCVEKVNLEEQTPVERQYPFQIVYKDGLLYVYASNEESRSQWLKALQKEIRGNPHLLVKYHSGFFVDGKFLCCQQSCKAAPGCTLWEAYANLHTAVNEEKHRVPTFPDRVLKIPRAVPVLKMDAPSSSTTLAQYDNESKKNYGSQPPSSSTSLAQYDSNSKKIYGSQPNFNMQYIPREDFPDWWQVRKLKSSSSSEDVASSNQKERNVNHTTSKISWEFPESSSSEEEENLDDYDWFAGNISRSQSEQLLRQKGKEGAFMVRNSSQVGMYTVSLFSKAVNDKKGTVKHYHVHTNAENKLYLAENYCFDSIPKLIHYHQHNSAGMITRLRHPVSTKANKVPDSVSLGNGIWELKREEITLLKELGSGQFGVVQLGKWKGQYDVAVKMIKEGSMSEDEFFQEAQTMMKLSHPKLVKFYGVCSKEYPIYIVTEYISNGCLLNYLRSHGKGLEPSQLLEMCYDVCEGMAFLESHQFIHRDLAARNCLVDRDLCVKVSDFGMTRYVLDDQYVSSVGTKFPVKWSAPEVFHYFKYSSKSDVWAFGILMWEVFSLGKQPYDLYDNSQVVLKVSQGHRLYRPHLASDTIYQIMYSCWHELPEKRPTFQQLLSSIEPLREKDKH

Study 1 — effect on: kinase activity
SMILES: CNc1ncc2cc(-c3cc(OC)cc(OC)c3Cl)c(=O)n(CCc3ccc(NC(=O)C(C#N)=CC(C)(C)N4CCOCC4)cc3)c2n1
target | conditions | inhibition [%]
MAP2K2 (Homo sapiens, UniProt P36507) | 1 µM | 1
PRKCE (Homo sapiens, UniProt Q02156) | 0.1 µM | 1
BMX (Homo sapiens, UniProt P51813) | 0.1 µM | -2
PLK1 (Homo sapiens, UniProt P53350) | 1 µM | 3
DCLK2 (Homo sapiens, UniProt Q8N568) | 0.1 µM | 4
PRKD3 (Homo sapiens, UniProt O94806) | 1 µM | 9
PLK2 (Homo sapiens, UniProt Q9NYY3) | 1 µM | 8
PHKG1 (Homo sapiens, UniProt Q16816) | 0.1 µM | -6
MARK3 (Homo sapiens, UniProt P27448) | 1 µM | 8
Insulin receptor (INSR, Homo sapiens, UniProt P06213) | 0.1 µM | 5
PRKACA (Homo sapiens, UniProt P17612) | 0.1 µM | 5
NTRK3 (Homo sapiens, UniProt Q16288) | 1 µM | 9
PRKG2 (Homo sapiens, UniProt Q13237) | 0.1 µM | 0
MAPKAPK5 (Homo sapiens, UniProt Q8IW41) | 1 µM | 2
AKT2 (Homo sapiens, UniProt P31751) | 0.1 µM | 1
CHUK (Homo sapiens, UniProt O15111) | 0.1 µM | 7
DAPK1 (Homo sapiens, UniProt P53355) | 0.1 µM | -1

Study 2 — cell line: U-87 MG; concentration: concentration not given; reference: DMSO
SMILES: CCN1/C(=C/C=C2\CCCC(/C=C/C3=[N+](CC)c4ccccc4C3(C)C)=C2NCCCCCCCCN2CCC(Nc3nc4ccccc4n3Cc3ccc(F)cc3)CC2)C(C)(C)c2ccccc21
assay | log2 fold change
measured: CDCA4 mRNA | -1.35
measured: RNF13 mRNA | 0.918
measured: CNN2 mRNA | -1.96
measured: YPEL2 mRNA | 1.07
measured: PLEKHG4 mRNA | -3.48
measured: CNIH1 mRNA | 0.837
measured: SLC2A4RG mRNA | -1.34
measured: HAS2 mRNA | 1.64
measured: ADAMTS12 mRNA | -2.25
measured: UPP1 mRNA | 1.08
measured: MAF mRNA | 2.3
measured: DEPTOR mRNA | -1.22
measured: JAG1 mRNA | -0.911
measured: PCDHB5 mRNA | -1.31
measured: ANO8 mRNA | -0.856

Study 3 — effect on: cell-free assay; technique: TR-FRET
Target: Membrane-associated tyrosine- and threonine-specific cdc2-inhibitory kinase (PKMYT1, Homo sapiens, UniProt Q99640)
Target sequence (Q99640 1-499): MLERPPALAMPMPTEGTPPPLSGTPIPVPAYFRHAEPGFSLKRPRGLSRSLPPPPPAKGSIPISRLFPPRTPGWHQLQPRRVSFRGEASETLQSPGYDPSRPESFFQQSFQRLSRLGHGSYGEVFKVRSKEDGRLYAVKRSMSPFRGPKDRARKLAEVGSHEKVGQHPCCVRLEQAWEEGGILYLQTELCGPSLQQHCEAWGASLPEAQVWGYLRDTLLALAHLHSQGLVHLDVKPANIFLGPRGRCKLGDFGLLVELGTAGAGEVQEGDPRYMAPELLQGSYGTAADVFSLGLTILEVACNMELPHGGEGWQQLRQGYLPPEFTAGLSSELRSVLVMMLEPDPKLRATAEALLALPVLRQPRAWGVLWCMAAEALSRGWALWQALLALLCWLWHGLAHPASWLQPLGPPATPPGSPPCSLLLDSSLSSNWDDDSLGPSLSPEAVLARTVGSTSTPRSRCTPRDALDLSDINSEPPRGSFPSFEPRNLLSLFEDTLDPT
Compound | IC50 [nM]
Cc1ccc(O)c(C)c1-c1cnc2[nH]c(-c3ccc(N4CCN(C)CC4)nc3C)nc2c1 | 261
Cc1ccc(O)c(C)c1-c1cnc2[nH]c(-c3cnc(N4CCC(CN5CCN(c6ccc7c(c6)CN(C6CCC(=O)NC6=O)C7=O)CC5)CC4)nc3)cc2c1C#N (centres unmarked) | 2.9
Cc1ccc(O)c(C)c1-c1cnc2[nH]c(-c3cnc(N4CCC(CN5CCN(c6ccc7c(c6)C(=O)N(C6CCC(=O)NC6=O)C7=O)CC5)CC4)nc3)cc2c1C#N (centres unmarked) | 4.9
Cc1ccc(O)c(C)c1-c1cnc2[nH]c(-c3cnc(N4CCC(CN5CCN(c6ccc7c(c6F)CN(C6CCC(=O)NC6=O)C7=O)CC5)CC4)nc3)cc2c1C#N (centres unmarked) | 4
Cc1ccc(O)c(C)c1-c1cnc2[nH]c(-c3cnc(N4CCC(CN5CCN(c6cc7c(cc6F)c(N6CCC(=O)NC6=O)nn7C)CC5)CC4)nc3)cc2c1C#N | 4.7
Cc1ccc(O)c(C)c1-c1cnc2[nH]c(-c3cnc(N4CCC5(CC4)CC(CN4CCN(c6ccc(NC7CCC(=O)NC7=O)cc6F)CC4)C5)nc3)cc2c1C#N (centres unmarked) | 5.3
Cc1ncc(-c2cc3c(C#N)c(-c4c(C)ccc(O)c4C)cnc3[nH]2)cn1 | 1.7
Cc1ccc(O)c(C)c1-c1cnc2[nH]c(-c3cnc(N)nc3)cc2c1C#N | 2.6
Cc1ccc(O)c(C)c1-c1cnc2[nH]c(-c3cnc(N4CCC(CCN5CCN(c6ccc(NC7CCC(=O)NC7=O)cc6F)CC5)CC4)nc3)cc2c1C#N (centres unmarked) | 3.1

Study 4 — mode: inhibitor; technique: L-[14C]leucine uptake; cells: CHO-BC cells; added: L-leucine 150 µM
Target: Sodium-dependent neutral amino acid transporter B(0)AT1 (SLC6A19, Homo sapiens, UniProt Q695T7)
UniProt Q695T7, sequence (whole entry, looked up): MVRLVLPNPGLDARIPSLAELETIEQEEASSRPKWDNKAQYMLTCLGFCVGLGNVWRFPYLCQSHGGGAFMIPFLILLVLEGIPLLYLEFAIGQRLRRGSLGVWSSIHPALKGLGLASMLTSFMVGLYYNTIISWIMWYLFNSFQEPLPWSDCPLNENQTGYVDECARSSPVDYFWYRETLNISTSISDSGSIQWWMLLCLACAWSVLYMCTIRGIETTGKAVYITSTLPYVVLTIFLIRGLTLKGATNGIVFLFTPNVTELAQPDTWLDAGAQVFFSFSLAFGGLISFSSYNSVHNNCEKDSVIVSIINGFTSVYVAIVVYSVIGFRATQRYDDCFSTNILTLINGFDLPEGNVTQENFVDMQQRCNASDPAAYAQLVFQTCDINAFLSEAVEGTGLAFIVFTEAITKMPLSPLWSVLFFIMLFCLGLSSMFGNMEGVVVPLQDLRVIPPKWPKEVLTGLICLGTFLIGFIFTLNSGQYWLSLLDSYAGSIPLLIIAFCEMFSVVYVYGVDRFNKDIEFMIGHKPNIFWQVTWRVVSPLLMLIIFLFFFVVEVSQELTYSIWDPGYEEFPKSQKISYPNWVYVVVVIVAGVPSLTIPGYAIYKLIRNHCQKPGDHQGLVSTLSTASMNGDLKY
SMILES | IC50 [nM]
CCCNC(=O)COc1cc(C)c(Cl)c(C)c1 | 4000 ± 1500
CCNC(=O)COc1cc(C)c(Cl)c(C)c1 | 3000 ± 400
Cc1cc(OCC(=O)NC(C)C)ccc1I | 700 ± 100
Cc1cc(OCC(=O)NC(C)C)ccc1Br | 1000 ± 400
Cc1cc(NCC(=O)NC(C)C)cc(C)c1Br | 900 ± 200
CC(C)NC(=O)COc1ccc(I)cc1 | 6000 ± 600
Cc1cc(NCC(=O)NC(C)C)cc(C)c1Cl | 1200 ± 100
CC(C)NC(=O)COc1ccc(Cl)cc1 | 37000 ± 33000
Cc1cc(OCC(=O)NC(C)C)ccc1Cl | 2000 ± 300

Repeated from above (study 1):
target | conditions | inhibition [%]
BMX (Homo sapiens, UniProt P51813) | 0.1 µM | -2
PLK1 (Homo sapiens, UniProt P53350) | 1 µM | 3
DCLK2 (Homo sapiens, UniProt Q8N568) | 0.1 µM | 4
